Results pooled from the literature.
Each numbered part is a random draw from the data of one study; scales do not carry over between parts. Positions count from the first letter of the parent shown.

Study 1 — target: CCNF, cyclin fold, Cln2 fusion (human); method: yeast growth competition, sequencing; medium: yeast; notes: strong parent motif; reference: not given; direction: higher = stronger binding
Parent: BRCA2 docking peptide (human); PSIKRNLLNEFDR; partner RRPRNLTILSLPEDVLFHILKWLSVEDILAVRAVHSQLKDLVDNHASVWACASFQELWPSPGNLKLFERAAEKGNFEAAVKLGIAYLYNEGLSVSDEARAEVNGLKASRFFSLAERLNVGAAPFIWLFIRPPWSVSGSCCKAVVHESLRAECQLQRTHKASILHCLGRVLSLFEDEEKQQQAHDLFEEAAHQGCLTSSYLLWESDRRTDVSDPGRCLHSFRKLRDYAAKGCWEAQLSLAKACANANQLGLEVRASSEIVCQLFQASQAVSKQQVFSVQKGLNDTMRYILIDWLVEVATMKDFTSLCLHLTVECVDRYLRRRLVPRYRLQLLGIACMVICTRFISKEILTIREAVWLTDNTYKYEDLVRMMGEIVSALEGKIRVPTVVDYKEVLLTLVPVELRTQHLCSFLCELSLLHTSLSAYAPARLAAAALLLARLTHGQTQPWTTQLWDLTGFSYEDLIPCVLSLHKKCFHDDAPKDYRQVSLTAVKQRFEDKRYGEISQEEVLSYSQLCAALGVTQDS
Substitution | normalised enrichment score
PSIKRNLLNNFDR [E10N] | 1.87
PSIKRNLLDEFDR [N9D] | 3.68
PSIKGNLLNEFDR [R5G] | -0.234
PSIKRELLNEFDR [N6E] | 0.979
PSIKRNLLNEFCR [D12C] | 2.79
PSMKRNLLNEFDR [I3M] | 0.403
PSIYRNLLNEFDR [K4Y] | 1.76
PSIKRNHLNEFDR [L7H] | 0.292

Study 2 — method: DHFR PCA, deep sequencing; medium: yeast; with: (+)-ABA 4.8 µM; reference: wild-type fitted maximum; direction: higher = stronger binding
Target: ABI1, truncated, D143A, DHFR fusion (Arabidopsis thaliana)
Notes: methotrexate growth selection, single substitutions
Parent: PYL1, truncated, DHFR fusion (Arabidopsis thaliana); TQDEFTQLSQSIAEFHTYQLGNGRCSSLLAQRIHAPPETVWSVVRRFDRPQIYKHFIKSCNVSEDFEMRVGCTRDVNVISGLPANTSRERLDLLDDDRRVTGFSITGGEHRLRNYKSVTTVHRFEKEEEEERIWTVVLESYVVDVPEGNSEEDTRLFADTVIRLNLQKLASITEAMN; partner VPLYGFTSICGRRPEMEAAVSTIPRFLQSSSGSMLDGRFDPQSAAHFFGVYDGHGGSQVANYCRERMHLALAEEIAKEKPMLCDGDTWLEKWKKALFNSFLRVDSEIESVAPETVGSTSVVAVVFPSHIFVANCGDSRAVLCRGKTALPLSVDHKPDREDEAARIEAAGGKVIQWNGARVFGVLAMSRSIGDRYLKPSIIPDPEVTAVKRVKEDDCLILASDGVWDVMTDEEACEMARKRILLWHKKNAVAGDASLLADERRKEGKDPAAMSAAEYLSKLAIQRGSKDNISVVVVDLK
Substitution | relative binding score
E67M | 54.9%
V78P | 4.09%
R111C | 2.91%
N114I | -2.66%
F66I | 37.6%
L138A | -4.33%
K116V | 3.81%

Study 3 — method: protein-binding microarray; molecule type: double-stranded DNA, one strand shown; medium: in vitro; tested at: 2540 nM top; notes: 60-bp whole probe; with: salmon DNA 0.4 mg/ml; reference: random background probes; direction: higher = stronger binding; all sequences stand within: GCCTAGCAC … GTCTTGATTCGCTTGACGCTGCTG
Target: Interferon regulatory factor 3, full length, phosphomimetic (IRF3, Homo sapiens, UniProt Q14653, residues 1-427, S386D/S396D/S398D/S402D/T404D/S405D)
Residues (chain): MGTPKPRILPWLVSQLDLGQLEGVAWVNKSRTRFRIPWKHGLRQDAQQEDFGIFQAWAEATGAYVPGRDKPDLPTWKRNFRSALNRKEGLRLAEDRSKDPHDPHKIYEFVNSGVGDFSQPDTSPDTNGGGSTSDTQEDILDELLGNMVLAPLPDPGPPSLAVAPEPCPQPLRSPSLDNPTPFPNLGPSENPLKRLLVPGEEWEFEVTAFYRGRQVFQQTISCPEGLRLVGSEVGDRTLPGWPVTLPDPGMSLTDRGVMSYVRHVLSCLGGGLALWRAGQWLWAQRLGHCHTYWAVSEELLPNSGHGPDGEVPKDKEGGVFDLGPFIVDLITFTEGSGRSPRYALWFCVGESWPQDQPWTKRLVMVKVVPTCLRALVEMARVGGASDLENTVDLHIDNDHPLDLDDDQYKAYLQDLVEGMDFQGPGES
Oligonucleotide | fitted relative affinity
TTAGAACTGGGGACGGGATTAGTGCTA | -0.656 z-score
TCAAACTTGTATTTGTCACTGTGCTAG | -0.0842 z-score
TTAGAACTGGGGTATCGATAAGTGCTA | -0.602 z-score
TTAGATATCAGTATCGATTAGTGCTAG | 1.95 z-score
GACGGTTTCGACTGTCGGGACGTGCTA | 2.53 z-score
GACGATTTCGGGTATCGAGAAGTGCTA | 1.76 z-score
GATGGTTTCGACTATCGGGACGTGCTA | 2.57 z-score

Other studies, line by line
Substance | target | assay | test system | setting | how to read | endpoint | result
PhoQ, residues 284 288 289 292 302 303 NLMGRA | PhoP, residues 12 14 15 18 19 TPWLV (Escherichia coli, UniProt P23836) | Sort-seq, refers to: YFP reporter | E. coli | PhoQ-PhoP variant library, with: 10 µM Mg2+ | reference: high Mg2+ state, higher = stronger signaling | fold induction | 4.93

A few entries again (study 3):
Oligonucleotide | fitted relative affinity
TCAAACTTGTATTTGTCACTGTGCTAG | -0.0842 z-score
TTAGAACTGGGGTATCGATAAGTGCTA | -0.602 z-score
TTAGATATCAGTATCGATTAGTGCTAG | 1.95 z-score
